Measurements pooled from the literature.
Each numbered part is a random draw from the data of one study; scales do not carry over between parts.

Set 1
Target: Histone acetyltransferase KAT6A, winged helix 2, GST fusion (KAT6A, Homo sapiens, UniProt Q92794, residues 85-181)
Method: protein binding microarray
Molecule type: double-stranded DNA, one strand shown
Medium: in vitro
Tested at: not given
Notes: 8-mer, flanks averaged, mean of 2 arrays, mostly near background
Reference: not given
Reading: higher = stronger binding
Construct (chain): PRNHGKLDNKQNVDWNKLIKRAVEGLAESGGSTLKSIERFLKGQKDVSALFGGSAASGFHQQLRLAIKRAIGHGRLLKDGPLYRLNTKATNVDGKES
Strand	E-score
CTCGGACC	0.157
CTCAATGA	-0.0627
AGAGTTGG	-0.122
AGCTGTAA	-0.0997
ACTGAAAT	0.00411
GGGATGAC	-0.105
GCAGTCGC	0.0857
AACGCGAA	-0.0271
CAAATTGC	0.0813
AACGGATC	-0.019
CCGGAGGA	0.0349
TCCTCCGA	-0.0238
AAGATGCC	0.139
CCTCAGCC	-0.0528
CGAACATC	0.128
GCTGTATA	0.0351
ATCTGAAG	-0.156

Set 2
Target: Sal-like protein 4, full length isoform A (SALL4, Homo sapiens, UniProt Q9UJQ4, residues 1-1053)
UniProt Q9UJQ4, sequence (whole entry, looked up): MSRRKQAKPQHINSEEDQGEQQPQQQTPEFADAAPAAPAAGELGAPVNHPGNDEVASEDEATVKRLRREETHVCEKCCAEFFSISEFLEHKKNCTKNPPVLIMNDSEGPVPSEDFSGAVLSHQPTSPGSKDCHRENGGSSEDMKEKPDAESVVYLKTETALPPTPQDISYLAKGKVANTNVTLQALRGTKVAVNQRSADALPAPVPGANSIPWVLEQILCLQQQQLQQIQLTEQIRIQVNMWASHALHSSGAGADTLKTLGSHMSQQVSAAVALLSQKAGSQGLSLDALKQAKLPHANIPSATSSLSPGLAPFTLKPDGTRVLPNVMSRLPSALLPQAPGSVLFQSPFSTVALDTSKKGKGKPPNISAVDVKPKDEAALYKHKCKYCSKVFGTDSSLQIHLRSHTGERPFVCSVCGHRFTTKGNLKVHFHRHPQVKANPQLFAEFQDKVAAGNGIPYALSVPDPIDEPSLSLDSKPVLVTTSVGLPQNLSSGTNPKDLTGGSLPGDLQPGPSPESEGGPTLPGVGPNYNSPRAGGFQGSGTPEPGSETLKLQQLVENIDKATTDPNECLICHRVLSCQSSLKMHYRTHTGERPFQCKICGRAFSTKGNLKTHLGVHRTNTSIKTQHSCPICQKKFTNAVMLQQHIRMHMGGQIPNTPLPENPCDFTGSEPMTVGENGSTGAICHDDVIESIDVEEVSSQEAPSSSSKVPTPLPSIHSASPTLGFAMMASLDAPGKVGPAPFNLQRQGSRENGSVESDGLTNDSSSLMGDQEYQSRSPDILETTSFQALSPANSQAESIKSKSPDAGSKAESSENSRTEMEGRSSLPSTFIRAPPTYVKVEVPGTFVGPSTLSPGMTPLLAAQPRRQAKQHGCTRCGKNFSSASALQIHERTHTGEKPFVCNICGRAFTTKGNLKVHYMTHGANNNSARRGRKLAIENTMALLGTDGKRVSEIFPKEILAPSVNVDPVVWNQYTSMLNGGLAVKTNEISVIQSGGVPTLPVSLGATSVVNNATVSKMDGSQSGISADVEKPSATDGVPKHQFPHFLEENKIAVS
Method: universal PBM
Molecule type: double-stranded DNA, one strand shown
Medium: in vitro
Tested at: 600 nM
Notes: 8-mer, flanks averaged, mean of replicates
Reading: higher = stronger binding
Strand	E-score
CGGGTATA	0.026
ACTATTGC	0.246
GAGAGCTA	-0.0271
CAGCGAAG	-0.163
AACCATCG	-0.0297
GCTGAGAC	-0.109
ACCGGGCG	-0.374
CTAATACC	0.0593
CACGCGTA	-0.14
ACCCGGAT	-0.316
GCTCGAAA	-0.054
AATGTCAA	0.207
AACTGAGC	-0.229
GCATTCCC	-0.114
TCACCCCA	0.0257
AGCTGCTC	-0.1
GCGACGAA	-0.109
CAACAGAA	0.201
CGCCCTAG	-0.298
ACCGTAGT	-0.213

Set 3
Target: RING finger protein unkempt homolog, zinc fingers 1-6, GST-SBP tag (UNK, Homo sapiens, UniProt Q9C0B0, residues 30-357)
Method: RNA Bind-n-Seq
Molecule type: RNA
Medium: in vitro
Tested at: not given
Notes: RNA with constant flanks, human-mouse chimeric sites, ends assumed
Reference: input RNA pool
Reading: higher = stronger binding
Residues (chain): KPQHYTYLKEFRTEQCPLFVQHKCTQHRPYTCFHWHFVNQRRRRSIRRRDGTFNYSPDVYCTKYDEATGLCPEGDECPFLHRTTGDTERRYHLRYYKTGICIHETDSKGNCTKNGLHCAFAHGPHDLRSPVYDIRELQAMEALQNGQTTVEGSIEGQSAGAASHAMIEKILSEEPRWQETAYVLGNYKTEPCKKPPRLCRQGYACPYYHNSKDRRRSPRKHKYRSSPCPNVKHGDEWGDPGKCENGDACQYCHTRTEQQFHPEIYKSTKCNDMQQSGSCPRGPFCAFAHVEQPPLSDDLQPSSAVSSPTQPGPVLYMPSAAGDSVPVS
Strand	bound/input enrichment
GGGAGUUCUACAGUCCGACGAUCCCUGCUCAGAUCACCAUGAAAGUAAUCCAAGGCCUAUAUAGUGGGGUCACCACAGUGGAACUAGAUACUUUGGCUGCUGAGACAGCCGCGACCUUGACCACGAAGCACCCUGACUAUGCCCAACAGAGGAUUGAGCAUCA	0.164 ratio
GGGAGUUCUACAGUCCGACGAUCACUCUUGACUCUUUCCAUCCUCUUCCUUUCCCUCUUGAUCUUCAAGGCCAUGAAUCCCAAAAUAACAGUCUUAGUGGCUAGCACCCAAACAGAGGUGGGUGCCAUCCACCCCAGUGUCUCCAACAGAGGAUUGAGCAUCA	0.583 ratio
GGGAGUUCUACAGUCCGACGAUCGAUAAGAAAAGCUUGUUGGAGACCCGCUUGCAUGUCACUGGUAGAGAACUGAGGUCCCAAAUAGCUGAAACUUUCGGAUUUCAAGAAAAUUACAUCAAGAUCGUAAUAAAUAAGAAGCAGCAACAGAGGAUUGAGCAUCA	0.647 ratio
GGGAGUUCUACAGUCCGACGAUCUUUCUACUGCAGCAAACGAUGCUAAGAAUUAAGGAUCCUAAGAAGUCCCUGGAUUUUUAUACUAGAGUUCUUGGACUGACCCUCCUGCAAAAAUGUGACUUCCCUGCUAUGAAGUUCUCGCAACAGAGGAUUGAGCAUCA	0.351 ratio
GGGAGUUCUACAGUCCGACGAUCCUCAGAGACGUGGCAUAUCAGUAUGUGAAAAAGGGGGCUCGUAUAUUUGUGGAAGGGAAAGUGGACUAUGGCGAGUACAUGGAUAAAAAUAAUGUGAGGCGGCAAGCAACAACAAUCAUACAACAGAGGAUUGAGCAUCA	0.412 ratio
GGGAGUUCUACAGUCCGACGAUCCGAGACAAAGCAUCUAGGAACAUGCGAGGCUCCCGGAUGAAUGGGUUGCCUAGCCCCACUCACAGCGCCCACUGUAGCUUCUACCGAACCAGAACCUUGCAGGCACUGAGUAAUGAGAAGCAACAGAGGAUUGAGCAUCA	0.0505 ratio
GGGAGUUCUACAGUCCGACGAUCCUGUGUGUGCUGAAUAAAUGGCUUGUAAAGAAGUUUUUCCAAGCUGUAACCCAUGCUGUUAUUAUAGUUGCUGCAAAAUGUCUCUUAUAUUGAUGUUUUUAUUUGUUAACUGAAGGUCUCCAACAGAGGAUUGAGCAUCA	0.309 ratio
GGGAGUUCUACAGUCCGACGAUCUGUGAACUGAAAGGUGUGAUCUAAAAACAAGAUGACUUUUCCUGGCACAUAUUCCAAAGCAAAGACUUUGUUACCUGCUGCUUAUUGUCUAAUUUACAGGGAUAUUUAAUUUUGUCAGGUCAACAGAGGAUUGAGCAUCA	0.114 ratio
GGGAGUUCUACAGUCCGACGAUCUCCUGGUCGUGUCCCAGUGCAGGACGAUGUGAACAAAAACUCAAAGCGGACCCUCUAUUGUAGUUCUUUUUUUAAAUAAUGUGCUAUUAUUGUUUGUCUUUUUUUUUUUUUUUUUAAAGACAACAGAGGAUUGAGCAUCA	7.35 ratio
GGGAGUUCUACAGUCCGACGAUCGUAGCUGGGACUACAGAAAUGCUGGUAGUGCUCCGGCCUUGCUGAUGACUUCUGAUGUCCCAGCAAAUGUUGGCAUUGUUGACUGCUGAGAAGAUACACUCGCAAGGCCACGUCUAAGGUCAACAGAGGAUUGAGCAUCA	0.0784 ratio
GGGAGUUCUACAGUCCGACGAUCCAGUCCCCGUGUCCCAGUGCAGGACGAUGUGAACAAAAACUCAAAGCGGACCCUCUACUGUAGUUGAUUUUUUAAAUAAUGUGCUAUUAUUGUUUGUCUUUUUUUUUUUUUUUUUAAAGACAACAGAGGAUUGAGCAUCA	7.07 ratio

Set 4
Target: RNA binding protein fox-1 homolog 2, RRM domain, GST-SBP tag (RBFOX2, Homo sapiens, UniProt O43251-10, residues 100-194)
Method: RNA Bind-n-Seq
Molecule type: RNA
Medium: in vitro
Tested at: 365 nM
Notes: natural RNA segment, single round, ends assumed
Reference: no-protein control
Reading: higher = stronger binding
Construct (chain): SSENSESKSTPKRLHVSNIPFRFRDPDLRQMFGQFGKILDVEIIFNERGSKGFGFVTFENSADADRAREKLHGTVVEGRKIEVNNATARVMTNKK
Strand	RBNS enrichment (R)
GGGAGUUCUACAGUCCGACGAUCUAGCUGUGAUUGGUGAGUCAACCGUCUGUGGCUACCAGUUACACUGAGAUUGUAACAGCAUUUUUACUUUCUGUACAACAAAAAAGCUUUGUAAAUAAAAUCUUAACAUUUGGAAUUCUCGGGUGCCAA	4.22
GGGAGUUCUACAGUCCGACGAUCUUGGCAGGAUGGUGACAUUGAACAUGAUUGCUCUCUGUCUCUUUUUUCAGCUUAUGGGUAUUUAUCUUCUAUUAGUAUUUGUAUCUUCAGUUCAUUCCACUUUAGGAAACUGGAAUUCUCGGGUGCCAA	0.365
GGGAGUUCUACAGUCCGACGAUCAAGGUAAGCAGGGCUGCCACUGUGGCCACGUAACCCUUCAGGAACCAGUGCUGAAGAAUAAUGAGUGAGAACACUUAAUUUGAGAGUUAGACAAAUACAGCCCACUUUGGUGGAAUUCUCGGGUGCCAA	0.468
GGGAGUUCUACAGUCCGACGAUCCUCUGGUUUCUUGGCUGCAUGGUUCUCUGUAAAUUCAGUUGUAGCCACUGUCUUUGGCUAGAAAGCUGAAUUGGCUGUUGCUGAAAGGAAGGAGGGGAUGGGUGUGGCGAUGGAAUUCUCGGGUGCCAA	0.54
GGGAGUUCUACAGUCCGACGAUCCUGUCUCCAUGUUAAAAUGCCAAAAAUGAUGUAGUUGUUGUUGCUUUUUUCCCUAUUUUCCACCCCAGUCGCUCCUUACCGUGACUCCUGCCCUUGGAGGGCAUGUAGCAUGGAAUUCUCGGGUGCCAA	1
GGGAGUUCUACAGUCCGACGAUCUUGUACUUUUUAUUCAAUCUGUAUAGACUAUAAAACUAUUUUUAUUAAAUAAAUAUUUUACAGUAAAUUUUCCCUUUUCACUCAGAAUUAUUUUGAGUUCAUCUUCAAAGUGGAAUUCUCGGGUGCCAA	1.15
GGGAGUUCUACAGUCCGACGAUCUAAUGUGUAAUUAAAGUGAGGAGAAAUUAAAUACUCUGAGGGCGUUUUAUAUAAUAAAUUCGUGAAGAAUGUGUGCUCUUCAGUUCUCAAGUUUUAUUAUUAUGGUAUUUUGGAAUUCUCGGGUGCCAA	2.34
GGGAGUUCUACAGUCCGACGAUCACAACUGUAGGUAAGGUUGUAAAUUCUGAGGAACAACAACACCACCACCACAACCAUGAGCCUUUCUUCAGUUUGCUCGGGUUGACGCGGGCUGCAGAGCAGCGUCUAGUUGGAAUUCUCGGGUGCCAA	0.293
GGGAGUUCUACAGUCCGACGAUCAUUGUAUGUUUUGCAUUCCUAGAAGUAGGUUAACUGUGUUUUUAAAUUGUUAUAACUUCACACCUUUUUGAAAUCUGCCCUACAAAAUUUGUUUGGCUUAAACGUCAAAAUGGAAUUCUCGGGUGCCAA	0.624
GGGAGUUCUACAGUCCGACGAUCUUAAAAUGCUAAAUAUUGCAAAUUUAAGCUUUGUCAGUAUAUGGAAAAGUUGAAGGGAAAAUACUGGAAUGCUUCUUCAAAGGUUAAAAAAUAACCGAGUCUUUUGGUAAUGGAAUUCUCGGGUGCCAA	0.948
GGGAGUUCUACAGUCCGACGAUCGCGUUCCAGAUAAAAAUGAGACUUAGAAGACAGACUGGUCUAAUAUGCUCACUGGUCAUCACAUUCAGCUUAUUCUUACGUGCCAGUGAGGCCCUAAGGUCUCAGUGCAUUGGAAUUCUCGGGUGCCAA	0.35
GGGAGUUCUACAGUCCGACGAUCUCACCAGCUGUUGAGAGUCUGCGAUUAUGAAGAGCAGGAUCUUAUUACUUCAAUGAAAGCAUGUAACAAGUUUCUCAAACCACCAACAGCCAAGUGGAUUUGGUACAGUGUGGAAUUCUCGGGUGCCAA	0.795

Set 5
Target: Centromere-binding protein 1, full length, His-tagged (CBF1, Saccharomyces cerevisiae, UniProt P17106, residues 1-351)
UniProt P17106, sequence (whole entry, looked up): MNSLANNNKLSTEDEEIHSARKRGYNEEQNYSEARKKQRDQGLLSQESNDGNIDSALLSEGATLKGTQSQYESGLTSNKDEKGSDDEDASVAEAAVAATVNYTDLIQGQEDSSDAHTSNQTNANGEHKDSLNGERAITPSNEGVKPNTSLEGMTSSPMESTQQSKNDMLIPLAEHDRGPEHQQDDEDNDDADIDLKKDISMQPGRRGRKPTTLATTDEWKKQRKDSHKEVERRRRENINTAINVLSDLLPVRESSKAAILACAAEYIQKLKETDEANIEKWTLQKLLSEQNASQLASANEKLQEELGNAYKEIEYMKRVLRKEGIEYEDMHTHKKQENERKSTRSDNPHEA
Method: competition protein-binding microarray
Molecule type: double-stranded DNA, one strand shown
Medium: in vitro
Tested at: 2 µM
Notes: whole 60-bp probe, lowest competitor level
Together with: Pho4 competitor, 0.05 µM
Reading: higher = stronger binding
Strand	fluorescence intensity
AATGGGAACACCTTACGCGTGAGATGGGCCCACCGCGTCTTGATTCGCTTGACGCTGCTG	68.8 a.u.
AGTCTCTTTTAGTTCACCGTGACGGTACGCACTGATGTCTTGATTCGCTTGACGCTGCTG	99.4 a.u.
CTAACGAAGGTTTGGACCGTGGGTGACAAGCCAAGTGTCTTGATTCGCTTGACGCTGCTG	64 a.u.
CGGGGTTAAGTTTGTCACATAACTTGCTTGCAGCAGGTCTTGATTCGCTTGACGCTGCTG	63.7 a.u.
CTCAATTATGGCCTCCACGTGCGGACGGGCGGCTAGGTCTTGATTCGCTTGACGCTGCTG	585 a.u.
GTCTTGTCTCATTTTCACGTGTTCTTCCCCACTTCAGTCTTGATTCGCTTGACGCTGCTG	1080 a.u.
CGGGGTTAAGTTTGCCCCGTGGGTGGCTTGCAGCAGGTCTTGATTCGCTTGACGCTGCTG	72.6 a.u.
CTAACGAAGGTTTGCCAAGTGGGTGACAAGCCAAGTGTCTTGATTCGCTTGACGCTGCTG	73.3 a.u.
TTTAGGGCTACTTGGAATGTGATATCATTCTTACAAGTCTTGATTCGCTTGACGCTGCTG	80.3 a.u.
AAATTACTAAGTTGTCACAAAACTTACCCCGTATGAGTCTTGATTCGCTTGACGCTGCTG	89.8 a.u.
CTTTCCCGATCTTGCTCCGTGGGTGTAGCACATTTGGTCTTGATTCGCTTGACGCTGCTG	72.6 a.u.
CTTCTGTAAATTTGTACGGTGGGTGGACGCGCCCCGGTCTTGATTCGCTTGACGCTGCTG	74.1 a.u.
AAATTACTAAGTTGGTCAGTGGGTGACGCCGTATGAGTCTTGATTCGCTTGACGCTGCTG	67.7 a.u.
CTTCTGTAAATTTGGTCAGTGGGTGGACGCGCCCCGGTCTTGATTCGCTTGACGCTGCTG	86.2 a.u.
ACAACTGCGGGGACGCATGTGCTCTAAAGAAAGCAGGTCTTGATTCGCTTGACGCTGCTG	128 a.u.
TGAGGATGGCTATGGCATGTGGTAGTGGGATTAGAGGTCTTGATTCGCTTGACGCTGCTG	71.3 a.u.
CTTCTGTAAATTTCGCACGTGTTTTGACGCGCCCCGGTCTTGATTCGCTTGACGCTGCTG	1180 a.u.
CGGGGTTAAGTTTGTATTGTGGGTGGCTTGCAGCAGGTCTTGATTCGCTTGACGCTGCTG	73.5 a.u.
TGCGCAACAACTTGGGGCGTGGGTGTATGTCTAGAAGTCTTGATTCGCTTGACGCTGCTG	57.5 a.u.
AGAAACATAGTATGGAACGTGCAAAAGAGTCTGATTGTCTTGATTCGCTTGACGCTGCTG	107 a.u.
ATGAAAATGAAGAAATGCGTGATGGGAAATTACGGGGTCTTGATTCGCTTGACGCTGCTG	212 a.u.
